# Experimental data pooled from the literature.
# A part holds a random share of what one study measured.

# Sample 1
# Target: RNA binding protein fox-1 homolog 2, RRM domain, GST-SBP tag (RBFOX2, Homo sapiens, UniProt O43251-10, residues 100-194)
# Method: RNA Bind-n-Seq
# Molecule type: RNA
# Matrix: in vitro
# Concentration: 365 nM
# Setting: natural RNA segment, single round, ends assumed
# Reference: no-protein control
# Direction: higher = stronger binding
# Residues (chain): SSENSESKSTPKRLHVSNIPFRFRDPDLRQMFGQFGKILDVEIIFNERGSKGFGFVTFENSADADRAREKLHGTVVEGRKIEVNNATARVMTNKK
Strand,RBNS enrichment (R)
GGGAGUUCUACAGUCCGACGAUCGCCACCCCUUCCUCUUCCGAUUCUCCUAGCAGCCACUCAGAGAUAAUUUAAUUCCAGAUUGGAAACGCCCUUUUAGUUUAUCAGAUUGGUAACUUACAUCCUGCUGCCCAUGGAAUUCUCGGGUGCCAA,0.643
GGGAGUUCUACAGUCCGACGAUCGGGGCUAUGUGGCUACGGCUACACAAAAGCCUGUGCAGGUUAGAAGACGACUGUGGUGUGCAGUGGUGCUCUGGGAGUGGAGACUUCCUCUGUUCUCAGAGACUCACCCCUGGAAUUCUCGGGUGCCAA,0.236
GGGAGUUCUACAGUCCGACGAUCUUCAAAGAAAAUAUUUUAAACCUGUGAAAACUCACUAAUUUUGUUAAUAUUUAUCAUGAUGGCAUCAUUUCAGCCAGACUCGCUGAGAAUCUAUUGGUGGGGCAAAUAUAUGGAAUUCUCGGGUGCCAA,0.417
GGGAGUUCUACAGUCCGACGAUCGGAUCCUCCCAGCCCCCAGCCCGCCACCCUUCCAGCACUCCUCUCUAGAACCGACGACCACACACCGCCCCCGUGUUCCACCCAGCAAGCUCCGCUGGGAGACCCAGCGCUGGAAUUCUCGGGUGCCAA,0.776
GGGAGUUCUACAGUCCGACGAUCAAAGAAUACAUAGCCAAAGCAAUGUUACUACCCAUCAUACUGUUUAAAAAUGGAUAGAAAAUAAAAAUAUAAGUUAGUAUGGUUUAAUUCUGAAAAUACAAAUUAUCUUCUGGAAUUCUCGGGUGCCAA,0.642
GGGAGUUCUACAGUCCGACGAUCUUGUUAAUUAUGGCUUUUACUUCAUUUUAGAAAAGCACUAGAAAUUCUAAAUUUACUUUUCCUCUAGACCACACUUAAUGCCUGCCUUGAAGACAUUACAGAAAUGAAGGUGGAAUUCUCGGGUGCCAA,0.426
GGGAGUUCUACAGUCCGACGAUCUGCUAAAAAUGGUAACCUCCUUUGAGCAUUGCAGAAAGAGGGUUCUGUUUCAAAUUGGGCUGACCGUAAAAGCAAUUUUGAUGUCUUUCAAACUACCAUAAAGGGAUUUUUGGAAUUCUCGGGUGCCAA,0.349
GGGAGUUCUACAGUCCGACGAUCUCAGGCCACGGUAAGCCCUUCCCAGCUGAGAUAUGGGUGGCAUAAUUUGAGUCUUCUGGCAACAUUUGGUGACCUACCCCAUAUCCAAUAUUUCCAGCGUUAGAUUGAGGUGGAAUUCUCGGGUGCCAA,0.463
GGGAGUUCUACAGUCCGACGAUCACGGGUCUGCUGGAGAGAGAAGAAACAGGUGGCUGCCUUCCACCUCACUCCUCACUUGAGCUGCCUGGACUCGAGGAGCAGAGACUGGACAACCCAGGCGUCAGAAGCCUUGGAAUUCUCGGGUGCCAA,0.455

# Sample 2
# Target: RING finger protein unkempt homolog, zinc fingers 1-6, GST-SBP tag (UNK, Homo sapiens, UniProt Q9C0B0, residues 30-357)
# Method: RNA Bind-n-Seq
# Molecule type: RNA
# Matrix: in vitro
# Concentration: not given
# Setting: RNA with constant flanks, human and mouse sites, ends assumed
# Reference: input RNA pool
# Direction: higher = stronger binding
# Target sequence (chain): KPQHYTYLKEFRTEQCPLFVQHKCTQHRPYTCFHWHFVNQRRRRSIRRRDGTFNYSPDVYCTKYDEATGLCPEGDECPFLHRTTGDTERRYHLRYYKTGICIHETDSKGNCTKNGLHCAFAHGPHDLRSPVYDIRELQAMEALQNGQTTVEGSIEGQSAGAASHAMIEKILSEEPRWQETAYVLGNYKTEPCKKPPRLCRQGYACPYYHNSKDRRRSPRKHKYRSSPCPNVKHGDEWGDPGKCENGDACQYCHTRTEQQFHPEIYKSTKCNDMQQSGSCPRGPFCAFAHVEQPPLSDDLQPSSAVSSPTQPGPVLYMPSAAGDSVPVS
Strand,bound/input enrichment [ratio]
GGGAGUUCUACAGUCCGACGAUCACAUCCGCAAGAAGACCAGACUGCUGGUGGUGUUACAAGGCUACACAGAUGUUAUUGAUGUUGUCCAGGCCCUGCAGACCCACCCAGACUCAAAUGUCAAGGCCUCCUUCACCAUUGGUGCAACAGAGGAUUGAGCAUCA,0.0784
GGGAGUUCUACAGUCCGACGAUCACUGGAUUUUGUAGCUUUUAUUCUGGAAGUCAGUUUGUCCCAGCUGAUCAGAAUUUGCCUCAGAAGUUCCUAAGUGAUGCUGUUCAGGAUCUUUUUCCAGGACAAGCUAUAGAAAAAAAUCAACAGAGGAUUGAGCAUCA,0.605
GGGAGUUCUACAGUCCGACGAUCUGGGCGAACCACGUCUUCCUCGGGUGCCGAUACCCUCAAAAAGUUAUGGAUAAAAUACUUAGUAUGGCUGAAGGCAUCAAAGUGACAGAUGCUCCAACCUAUACAACAAGAGAUGAACUGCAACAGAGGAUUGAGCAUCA,0.0665
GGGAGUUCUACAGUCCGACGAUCGAUUUUUGCAUUGGAAAAGCAGCACAUUCUCUGACCUUGGGUACCAAGCUAUGAUACUAAUUUGAGAAUCACAUUCUGAUACGUUAAUAUCAGAAAUCAGUGAGCAACCUAAUUGCUGUACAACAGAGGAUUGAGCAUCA,0.199
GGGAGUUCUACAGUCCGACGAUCAUUUUAAGUAAGCCUUUAUCUUAAUCGUGUUUCAUGUUUUUUCAGAAAACAAGCAACAUUUUUCAUUGCACAUAAACAUGUAAAAUUCUUGCAUGCCACUGGUCAUAAUGGCUUACCAGUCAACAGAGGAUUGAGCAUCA,0.234
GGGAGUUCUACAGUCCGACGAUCCCUUAUGUCUAUGUGGAAAUCCACGGAAUUCCUGCCGACUGCGCGGAGCAAAGGACAAAAACGGUGAACCAGAAUGGAGAUGCUCCUAUUUUUGACGAGAGCUUUGAGUUUCAGAUUAACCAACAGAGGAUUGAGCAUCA,0.114
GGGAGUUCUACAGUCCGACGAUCGCUGAAAAUGAAGAAGAGGCAGCUGAUGUCUGGUACAACUUGGGACAUGUAGCUGUGGGAAUAGGAGAUACAAAUUUGGCCCAUCAGUGCUUCAGGCUGGCUCUGGUCAACAACAACAACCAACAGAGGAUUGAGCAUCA,0.897
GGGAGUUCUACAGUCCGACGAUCGGAGGCUAUGGAGGCUAUGAUGAUUACAAUGGCUAUAAUGAUGGCUAUGGAUUUGGGUCAGAUAGAUUUGGAAGAGACCUCAAUUACUGUUUUUCAGGAAUGUCUGAUCACAGAUACGGGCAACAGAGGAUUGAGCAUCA,0.439
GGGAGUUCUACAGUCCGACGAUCUAAAUUAGGGCUGCCGUUUUCUGUUUCUCCCUGGGCUGCGGAAAGCCAGAAGAUUUUAUCUAGCUUAUACAAGGCUGCUGGUGUUCCCUCUUUUUUUCCACGAGGGUGUUUUUGGCUGCACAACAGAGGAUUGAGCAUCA,0.745
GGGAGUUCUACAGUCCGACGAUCCAGGGCGUGAUCAAGUACAUGGGGCCGGCAGGGAGUAAGACCCUGCAGAGUGUUGUGCUUAGCAAGAUGAACUUUGAGUCUUUCGUGAAAGAUCUUCUUCUGGUUCGCCAGUAUCGAGUUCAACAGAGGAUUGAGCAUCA,0.107
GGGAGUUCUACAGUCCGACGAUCAAUGUAUCUGAACUUAGUUUAUGGGUUAUUCAAGGAUGUUUUUGGUUAUUUGGAACUGUCAUACUUAAAUACUUGACAUCUAAAAUUUUUGGUAUUGCAGAUGACGCUCAUAUUGGCAACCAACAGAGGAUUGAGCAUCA,0.188

# Sample 3
# Target: Prothrombin, mature alpha-thrombin (F2, Homo sapiens, UniProt P00734)
# Method: aptamer microarray, sandwich
# Molecule type: DNA with 2'F-ANA
# Matrix: in vitro
# Concentration: 200 nM
# Setting: whole 15-mer aptamer, many near background
# Added: Cy3 exosite-II aptamer, 400 nM
# Direction: higher = stronger binding
# Strand: GGTTGGTGTGGTTGG
Modification,mean fluorescence intensity
2'F-ANA at 1 4 6 10 11 12,92.9 a.u.
2'F-ANA at 2 3 5 10 12 15,59.3 a.u.
2'F-ANA at 1 3 4 5 10 14,44.9 a.u.
2'F-ANA at 1 2 3 8 9 10 12,120 a.u.
2'F-ANA at 3 4 5 8 9 12 14,58.8 a.u.
2'F-ANA at 2 4 5 8 9 11 12,135 a.u.
2'F-ANA at 4 5 7 8 9 11 12 13 14,46.5 a.u.
2'F-ANA at 2 7 9 13 15,327 a.u.
2'F-ANA at 2 4 5 10 13,46.5 a.u.
2'F-ANA at 1 4 5 6 7 8 11 15,52.4 a.u.
2'F-ANA at 2 5 8 9 10 11 12,47.9 a.u.
2'F-ANA at 1 2 3 5 7 8 10 12 14,44.2 a.u.
2'F-ANA at 1 3 4 7 9 10 11 12 15,77 a.u.
2'F-ANA at 1 3 5 6 7 8 10 11 13 15,48.8 a.u.
2'F-ANA at 3 5 8 9 10 12 13 14 15,55.9 a.u.
2'F-ANA at 1 2 3 7 12 14,113 a.u.
2'F-ANA at 6 8 9 12 13 15,579 a.u.
2'F-ANA at 3 4 8 9 10 12 15,339 a.u.
2'F-ANA at 2 5 6 8 9 10 11 12 13 14,51.2 a.u.
2'F-ANA at 1 3 4 5 7 9 13 14 15,48.3 a.u.
2'F-ANA at 1 2 4 7 8 9 13,99.4 a.u.
2'F-ANA at 1 3 7 10 11 12 13,120 a.u.
2'F-ANA at 3 6 9 11 13 14,412 a.u.

# Sample 4
# Target: Histone acetyltransferase KAT6A, both winged helices, GST fusion (KAT6A, Homo sapiens, UniProt Q92794, residues 1-181)
# Method: protein binding microarray
# Molecule type: double-stranded DNA, one strand shown
# Matrix: in vitro
# Concentration: not given
# Setting: 8-mer, flanks averaged, mean of 2 arrays, mostly near background
# Reference: not given
# Direction: higher = stronger binding
# Target sequence (chain): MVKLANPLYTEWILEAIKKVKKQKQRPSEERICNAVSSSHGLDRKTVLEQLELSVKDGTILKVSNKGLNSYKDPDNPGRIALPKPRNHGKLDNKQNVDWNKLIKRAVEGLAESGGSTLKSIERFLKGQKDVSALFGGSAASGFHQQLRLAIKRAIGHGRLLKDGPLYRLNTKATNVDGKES
Strand,E-score
ATGGTGAC,-0.154
CCATAAAG,-0.272
GATTATGC,0.0934
AGTATATA,0.0327
ATACCAAA,-0.00242
CGCGAAAC,0.264
TATCCGGA,0.151
GTCGGACA,0.147
CAGGTAAG,-0.164
CGTTTTTA,0.147
AAGGGTGC,-0.107
CAATGGCG,0.192
ATCGGTTG,-0.00278
ATTATCGC,0.00421
ACAGAAAA,-0.00059
ACCCCGCC,0.269
GACATGCA,-0.117
ATACCTTA,-0.22
CCCGCCCA,0.147
CGGTCCTC,0.185
AATTAGGC,-0.163
GAACCCTA,-0.0376
CTCTCTGC,-0.057
GATCCCTA,-0.124
ATACGGCA,0.245

# A few entries again (sample 4):
Strand,E-score
AGTATATA,0.0327
ATACCAAA,-0.00242
CGCGAAAC,0.264
TATCCGGA,0.151
GTCGGACA,0.147
CAGGTAAG,-0.164
CGTTTTTA,0.147
